Measured values of several laboratories.
Each numbered part is a random draw from the data of one study; scales do not carry over between parts. Positions count from the first letter of the parent shown.

Set 1 — target: CREBRF, bZIP domain (human); method: DHFR protein complementation; medium: yeast; baseline: wild-type JUN-FOS pair; reading: higher = stronger binding
Setting: single substitutions, most at no-binding floor
Starting sequence: JUN, bZIP domain (human); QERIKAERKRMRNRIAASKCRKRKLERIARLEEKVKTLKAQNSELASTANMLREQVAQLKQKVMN; partner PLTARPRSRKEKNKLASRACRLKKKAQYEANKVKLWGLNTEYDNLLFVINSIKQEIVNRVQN
Substitution	binding fitness
L59S	-1.42 natural log
R30N	-1.47 natural log
Q41H	-1.37 natural log
A57G	-1.52 natural log
A46N	-1.4 natural log
K39A	-1.51 natural log
S47Q	-1.2 natural log
K39G	-1.47 natural log
A46H	-1.37 natural log
E32T	-1.35 natural log
Q55R	-1.57 natural log
K36F	-1.47 natural log
M51L	-1.23 natural log
Q55M	-1.32 natural log
E54K	-1.44 natural log
N42H	-1.32 natural log
L59W	-1.63 natural log

Set 2 — target: CCND3, cyclin fold, Cln2 fusion (human); method: yeast growth competition, sequencing; medium: yeast; setting: weak parent motif; baseline: not given; reading: higher = stronger binding
Starting sequence: E2F8 docking peptide (human); FVPQRKLEVSTED
Substitution	normalised enrichment score
FVPQKKLEFSTED [R5K V9F]	-0.00477
FVPQRKLAVSTED [E8A]	0.117
FAPQRKLEVSTED [V2A]	0.0629
FVAQRKLEVSTED [P3A]	0.126
FVPQRKLEFSTED [V9F]	-0.116
FVPQRALEVSTED [K6A]	0.0992
FVPQRKLELSTED [V9L]	-0.446
FVPQRKLEVSTAD [E12A]	0.0936
AVPQRKLEVSTED [F1A]	0.111

Set 3 — method: aptamer microarray, sandwich; molecule type: DNA with 2'F-ANA; medium: in vitro; tested at: 200 nM; added: Cy3 exosite-II aptamer, 400 nM; reading: higher = stronger binding; sequence: GGTTGGTGTGGTTGG
Target: Prothrombin, mature alpha-thrombin (F2, Homo sapiens, UniProt P00734)
Setting: whole 15-mer aptamer, many near background
Modification	mean fluorescence intensity
2'F-ANA at 1 2 8 9 10 11 13 15	54.4 a.u.
2'F-ANA at 1 2 4 5 7 8 9 11 14	43.9 a.u.
2'F-ANA at 1 2 3 4 5 8 12 13	89.5 a.u.
2'F-ANA at 1 2 3 5 6 8 9 10 11 12 15	60.5 a.u.
2'F-ANA at 1 3 4 5 6 7 9 12 15	111 a.u.
2'F-ANA at 2 6 8 9 11 14	158 a.u.
2'F-ANA at 3 4 8 13 14 15	341 a.u.
2'F-ANA at 2 3 4 7 8 9 11 12 13 15	560 a.u.
2'F-ANA at 1 2 3 5 8 11 12 13	80.3 a.u.
2'F-ANA at 2 3 4 5 6 7 13 15	57.1 a.u.
2'F-ANA at 1 3 4 5 10 11 12 13 15	119 a.u.
2'F-ANA at 1 2 5 6 8 11 12 13 14 15	50.4 a.u.
2'F-ANA at 1 3 4 5 6 8 9 11 12 15	90.6 a.u.
2'F-ANA at 1 3 4 6 7 8 12	420 a.u.
2'F-ANA at 2 3 4 5 6 9 10 11 12 13 15	52.5 a.u.
2'F-ANA at 3 5 6 7 10	56.8 a.u.
2'F-ANA at 1 3 7 8 9 12 13 15	557 a.u.
2'F-ANA at 1 6 10 11 13 14	60.9 a.u.

Set 4 — method: DHFR PCA, deep sequencing; medium: yeast; added: (+)-ABA 0.032 µM; baseline: wild-type fitted maximum; reading: higher = stronger binding
Target: ABI1, truncated, D143A, DHFR fusion (Arabidopsis thaliana)
Setting: methotrexate growth selection, single substitutions
Starting sequence: PYL1, truncated, DHFR fusion (Arabidopsis thaliana); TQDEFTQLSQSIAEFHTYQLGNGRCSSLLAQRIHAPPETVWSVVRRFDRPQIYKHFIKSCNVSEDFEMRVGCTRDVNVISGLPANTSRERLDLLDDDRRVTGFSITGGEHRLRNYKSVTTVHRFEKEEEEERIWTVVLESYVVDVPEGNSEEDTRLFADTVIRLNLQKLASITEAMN; partner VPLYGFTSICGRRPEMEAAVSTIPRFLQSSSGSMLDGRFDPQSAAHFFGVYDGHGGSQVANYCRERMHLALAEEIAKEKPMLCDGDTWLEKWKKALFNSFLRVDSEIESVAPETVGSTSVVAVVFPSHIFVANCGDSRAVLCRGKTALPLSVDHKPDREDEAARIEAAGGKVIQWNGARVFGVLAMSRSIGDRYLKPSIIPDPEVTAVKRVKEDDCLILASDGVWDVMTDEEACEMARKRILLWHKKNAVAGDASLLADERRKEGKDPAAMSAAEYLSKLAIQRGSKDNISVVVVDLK
Substitution	relative binding score [%]
R98P	4.96
E38I	0.144
W41S	-2.97
L94R	-0.591
V143C	48
L93E	2.85
E38Q	-1.41
V62C	-1.66
M176T	6.22
L29M	4.24
T135M	-2.99
T1C	25.5
G148D	7.78
C60D	9.01
